Results collected from several papers.
A part holds a random share of what one study measured. Several values in a cell are separate wells, animals, samples, runs or records.
Sequence of UniProt P11362 (whole entry, looked up): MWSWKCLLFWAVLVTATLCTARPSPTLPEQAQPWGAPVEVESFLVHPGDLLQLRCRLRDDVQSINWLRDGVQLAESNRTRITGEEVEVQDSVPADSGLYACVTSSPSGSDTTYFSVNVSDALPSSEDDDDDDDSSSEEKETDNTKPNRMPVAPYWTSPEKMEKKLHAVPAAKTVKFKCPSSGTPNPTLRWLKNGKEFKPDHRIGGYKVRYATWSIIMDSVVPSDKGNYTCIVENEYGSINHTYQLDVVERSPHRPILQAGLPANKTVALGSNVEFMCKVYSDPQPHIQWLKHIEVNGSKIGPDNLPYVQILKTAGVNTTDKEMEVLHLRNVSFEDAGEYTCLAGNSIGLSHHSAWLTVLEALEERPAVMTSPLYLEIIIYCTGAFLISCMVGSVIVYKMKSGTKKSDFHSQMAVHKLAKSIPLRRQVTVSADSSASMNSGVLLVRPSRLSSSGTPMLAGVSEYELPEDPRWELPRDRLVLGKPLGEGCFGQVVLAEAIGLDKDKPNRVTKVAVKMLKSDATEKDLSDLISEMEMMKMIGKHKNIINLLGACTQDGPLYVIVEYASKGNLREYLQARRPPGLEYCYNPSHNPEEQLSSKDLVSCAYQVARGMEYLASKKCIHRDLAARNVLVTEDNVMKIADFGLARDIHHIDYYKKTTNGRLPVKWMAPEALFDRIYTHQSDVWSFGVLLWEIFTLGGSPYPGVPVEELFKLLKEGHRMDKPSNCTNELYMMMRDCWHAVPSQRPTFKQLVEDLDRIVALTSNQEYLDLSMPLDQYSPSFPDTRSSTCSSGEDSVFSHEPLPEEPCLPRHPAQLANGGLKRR
Sequence of UniProt Q02750 (whole entry, looked up): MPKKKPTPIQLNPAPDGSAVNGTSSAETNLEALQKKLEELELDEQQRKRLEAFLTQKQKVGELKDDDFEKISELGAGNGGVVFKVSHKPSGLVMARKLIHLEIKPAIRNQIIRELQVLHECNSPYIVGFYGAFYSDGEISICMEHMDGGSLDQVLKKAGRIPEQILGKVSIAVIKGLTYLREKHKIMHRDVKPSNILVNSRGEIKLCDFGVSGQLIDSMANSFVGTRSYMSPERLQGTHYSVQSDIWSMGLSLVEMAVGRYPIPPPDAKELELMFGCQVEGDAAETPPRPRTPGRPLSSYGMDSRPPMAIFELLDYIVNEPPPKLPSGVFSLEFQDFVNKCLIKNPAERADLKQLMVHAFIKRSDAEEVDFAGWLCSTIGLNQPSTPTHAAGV
Sequence of UniProt Q96L34 (whole entry, looked up): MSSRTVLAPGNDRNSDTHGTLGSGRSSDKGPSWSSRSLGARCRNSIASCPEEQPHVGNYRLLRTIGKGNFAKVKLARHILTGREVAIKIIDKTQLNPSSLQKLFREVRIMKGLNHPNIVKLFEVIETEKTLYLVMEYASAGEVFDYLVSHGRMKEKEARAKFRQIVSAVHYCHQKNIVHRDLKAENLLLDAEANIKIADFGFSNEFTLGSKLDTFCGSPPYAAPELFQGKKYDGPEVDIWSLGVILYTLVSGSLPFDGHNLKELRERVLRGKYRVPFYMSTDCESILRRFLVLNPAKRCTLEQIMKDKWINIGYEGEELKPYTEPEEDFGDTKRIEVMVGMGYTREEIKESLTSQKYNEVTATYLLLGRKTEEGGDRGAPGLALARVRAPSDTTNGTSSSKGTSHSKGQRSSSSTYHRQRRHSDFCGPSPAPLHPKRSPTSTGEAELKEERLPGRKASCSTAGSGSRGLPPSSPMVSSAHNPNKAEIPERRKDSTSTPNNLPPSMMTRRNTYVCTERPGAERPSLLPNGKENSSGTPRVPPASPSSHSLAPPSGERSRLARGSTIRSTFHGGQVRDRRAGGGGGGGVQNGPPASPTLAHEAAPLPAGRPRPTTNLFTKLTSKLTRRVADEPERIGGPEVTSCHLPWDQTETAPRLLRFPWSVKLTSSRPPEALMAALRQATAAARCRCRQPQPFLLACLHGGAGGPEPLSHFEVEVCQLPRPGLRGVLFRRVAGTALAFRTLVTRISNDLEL
Sequence of UniProt P51817 (whole entry, looked up): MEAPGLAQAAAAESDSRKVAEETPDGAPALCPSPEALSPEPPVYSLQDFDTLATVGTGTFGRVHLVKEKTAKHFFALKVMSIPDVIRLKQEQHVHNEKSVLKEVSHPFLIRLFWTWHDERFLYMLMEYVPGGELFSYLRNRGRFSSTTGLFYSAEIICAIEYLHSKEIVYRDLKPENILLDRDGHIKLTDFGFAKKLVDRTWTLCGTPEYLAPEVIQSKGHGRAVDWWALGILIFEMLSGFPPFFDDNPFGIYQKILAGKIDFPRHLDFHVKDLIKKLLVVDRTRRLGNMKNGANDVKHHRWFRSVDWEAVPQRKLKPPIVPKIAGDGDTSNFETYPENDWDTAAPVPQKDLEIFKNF
Sequence of UniProt Q13153 (whole entry, looked up): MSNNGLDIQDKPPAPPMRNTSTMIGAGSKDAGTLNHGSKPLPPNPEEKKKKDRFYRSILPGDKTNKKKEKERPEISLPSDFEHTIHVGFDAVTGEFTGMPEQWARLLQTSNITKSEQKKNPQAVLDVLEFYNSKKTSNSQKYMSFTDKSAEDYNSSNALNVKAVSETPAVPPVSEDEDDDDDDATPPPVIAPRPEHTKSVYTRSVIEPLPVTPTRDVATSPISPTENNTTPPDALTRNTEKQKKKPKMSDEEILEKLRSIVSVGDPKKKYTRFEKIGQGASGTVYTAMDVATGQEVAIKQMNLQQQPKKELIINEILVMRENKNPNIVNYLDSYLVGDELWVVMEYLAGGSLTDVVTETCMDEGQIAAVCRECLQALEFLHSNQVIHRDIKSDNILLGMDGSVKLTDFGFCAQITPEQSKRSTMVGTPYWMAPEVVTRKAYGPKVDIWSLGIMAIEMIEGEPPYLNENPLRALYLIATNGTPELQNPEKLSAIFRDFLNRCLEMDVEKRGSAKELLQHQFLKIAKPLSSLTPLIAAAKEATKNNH
Sequence of UniProt Q15835 (whole entry, looked up): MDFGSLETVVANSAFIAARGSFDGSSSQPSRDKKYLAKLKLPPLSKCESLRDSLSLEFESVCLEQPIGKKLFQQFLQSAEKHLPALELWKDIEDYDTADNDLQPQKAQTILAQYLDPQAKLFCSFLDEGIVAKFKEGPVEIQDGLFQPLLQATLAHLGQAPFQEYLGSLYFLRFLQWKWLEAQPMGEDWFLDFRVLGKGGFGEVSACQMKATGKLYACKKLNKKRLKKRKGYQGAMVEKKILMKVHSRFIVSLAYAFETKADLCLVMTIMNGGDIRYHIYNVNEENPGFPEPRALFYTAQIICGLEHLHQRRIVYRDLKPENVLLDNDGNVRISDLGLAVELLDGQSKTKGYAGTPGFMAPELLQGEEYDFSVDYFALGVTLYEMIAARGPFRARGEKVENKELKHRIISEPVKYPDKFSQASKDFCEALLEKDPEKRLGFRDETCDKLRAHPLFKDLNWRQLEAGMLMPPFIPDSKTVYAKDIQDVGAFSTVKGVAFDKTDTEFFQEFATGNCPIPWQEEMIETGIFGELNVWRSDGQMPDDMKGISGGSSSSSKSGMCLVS

Set 1
SMILES: Cc1nc(C)c(C=[N+]([O-])C(C)(C)C)nc1C
Technique: footprint test
Host: MPTP-induced Parkinson's disease mouse model
It gave 5.12 s and 8.22 s and 6.13 s and 4.85 s and 5.71 s and 6.35 s and 8.95 s for “corridor crossing time” (10 mg/kg, trial 1).
For 10 mg/kg, trial 3: “corridor crossing time” read 5.1 s and 5.97 s and 7.1 s and 5.87 s and 5.61 s and 4.7 s and 6.31 s.
It gave 8.42 s and 4.98 s and 6.37 s and 6.06 s and 5.52 s and 6.07 s and 6.83 s for “corridor crossing time” (10 mg/kg).
It gave 4.66 s and 7.88 s and 3.95 s and 5.06 s and 4.63 s and 4.03 s and 7.03 s and 5.81 s for “corridor crossing time” (30 mg/kg, trial 3).
It gave 6.19 s and 7.14 s and 4.73 s and 5.23 s and 5.31 s and 5.49 s and 5.16 s and 5.55 s for “corridor crossing time” (90 mg/kg).

Set 2
Structure (SMILES): CNc1ncc2cc(-c3cc(OC)cc(OC)c3Cl)c(=O)n(CCc3ccc(NC(=O)C(C#N)=CC(C)(C)N4CCOCC4)cc3)c2n1
Observed: kinase activity
AXL (Homo sapiens, UniProt P30530); 1 µM — inhibition: 3%.
For EPHB2 (Homo sapiens, UniProt P29323); 1 µM: inhibition read 1%.
The inhibition was -2% (MKNK1 (Homo sapiens, UniProt Q9BUB5); 1 µM).
PIK3CA (Homo sapiens, UniProt P42336); 1 µM — inhibition: 9%.
BRAF (Homo sapiens, UniProt P15056); 0.1 µM — inhibition: -2%.
It gave 3% for inhibition (STK16 (Homo sapiens, UniProt O75716); 0.1 µM).
HASPIN (Homo sapiens, UniProt Q8TF76); 1 µM — inhibition: 6%.
It gave 6% for inhibition (MAP2K1 (Homo sapiens, UniProt Q02750); 1 µM).
FGFR1 (Homo sapiens, UniProt P11362); 0.1 µM — inhibition: > 90% and 96%.
PRKCZ (Homo sapiens, UniProt Q05513); 1 µM — inhibition: -1%.
It gave 4% for inhibition (DDR2 (Homo sapiens, UniProt Q16832); 0.1 µM).
PASK (Homo sapiens, UniProt Q96RG2); 0.1 µM — inhibition: 11%.
It gave -1% for inhibition (PRKX (Homo sapiens, UniProt P51817); 0.1 µM).
The inhibition was 5% (TNK1 (Homo sapiens, UniProt Q13470); 0.1 µM).

Set 3
SMILES: C[C@@H]1CN(c2ccc(-c3cc(C(=O)NCCOCCOCCOCCOCCNC(=O)Cn4cc(-c5[nH]cc(C(=O)N[C@@H](CC(N)=O)c6ccc(F)c(Cl)c6)c5-c5ccc(Cl)cc5F)cn4)ccc3F)cc2NC(=O)c2c[nH]c(=O)cc2C(F)(F)F)C[C@H](C)N1C
Observed: thermal unfolding
Technique: differential scanning fluorimetry
Concentration: 5.5 µM
Direction: higher = more unfolded
WDR5: WD repeat-containing protein 5 (WDR5, Homo sapiens, UniProt P61964)
DCAF1: DDB1- and CUL4-associated factor 1 (DCAF1, Homo sapiens, UniProt Q9Y4B6)
Sequence of UniProt Q9Y4B6 (whole entry, looked up): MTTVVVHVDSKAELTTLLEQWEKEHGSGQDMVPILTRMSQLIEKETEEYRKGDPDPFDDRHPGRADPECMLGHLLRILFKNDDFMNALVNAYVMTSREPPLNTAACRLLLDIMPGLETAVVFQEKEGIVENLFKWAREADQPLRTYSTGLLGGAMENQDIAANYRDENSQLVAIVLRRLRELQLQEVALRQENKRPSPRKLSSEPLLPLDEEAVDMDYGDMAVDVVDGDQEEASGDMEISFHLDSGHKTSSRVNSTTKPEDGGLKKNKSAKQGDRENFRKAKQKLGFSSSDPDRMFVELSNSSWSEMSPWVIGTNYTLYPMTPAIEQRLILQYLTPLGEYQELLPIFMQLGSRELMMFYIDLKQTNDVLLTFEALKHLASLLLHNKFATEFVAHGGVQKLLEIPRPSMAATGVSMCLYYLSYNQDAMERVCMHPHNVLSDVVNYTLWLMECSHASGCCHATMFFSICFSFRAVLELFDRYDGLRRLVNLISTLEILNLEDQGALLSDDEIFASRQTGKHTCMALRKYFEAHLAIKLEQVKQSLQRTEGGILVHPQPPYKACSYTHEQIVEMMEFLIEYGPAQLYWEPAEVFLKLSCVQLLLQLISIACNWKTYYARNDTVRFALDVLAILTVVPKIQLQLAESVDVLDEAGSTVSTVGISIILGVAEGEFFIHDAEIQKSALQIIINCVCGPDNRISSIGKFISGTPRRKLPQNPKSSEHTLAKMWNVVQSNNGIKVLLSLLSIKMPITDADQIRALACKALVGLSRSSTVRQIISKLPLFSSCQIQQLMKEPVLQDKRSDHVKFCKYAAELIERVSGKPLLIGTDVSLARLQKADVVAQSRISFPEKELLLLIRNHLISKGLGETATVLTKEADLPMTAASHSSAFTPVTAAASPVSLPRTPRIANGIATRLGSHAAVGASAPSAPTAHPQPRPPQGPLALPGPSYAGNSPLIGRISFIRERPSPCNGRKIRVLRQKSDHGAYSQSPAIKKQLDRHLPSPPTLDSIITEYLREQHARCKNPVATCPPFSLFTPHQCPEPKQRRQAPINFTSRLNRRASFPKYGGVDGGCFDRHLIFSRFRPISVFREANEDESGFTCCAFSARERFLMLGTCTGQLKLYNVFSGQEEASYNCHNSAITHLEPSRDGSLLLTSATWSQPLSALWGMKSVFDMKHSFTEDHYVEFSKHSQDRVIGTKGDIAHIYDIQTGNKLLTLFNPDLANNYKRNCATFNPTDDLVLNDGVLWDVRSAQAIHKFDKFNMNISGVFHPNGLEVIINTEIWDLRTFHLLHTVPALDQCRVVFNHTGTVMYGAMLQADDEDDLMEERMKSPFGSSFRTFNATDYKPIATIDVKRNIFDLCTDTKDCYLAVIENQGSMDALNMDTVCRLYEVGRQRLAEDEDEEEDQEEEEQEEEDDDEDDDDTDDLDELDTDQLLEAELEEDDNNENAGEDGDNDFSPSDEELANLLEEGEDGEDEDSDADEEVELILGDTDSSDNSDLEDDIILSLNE
WDR5; 92.21 °C — “SYPRO Orange fluorescence”: 41200 a.u.
For DCAF1; 89.61 °C: “SYPRO Orange fluorescence” read 35500 a.u.
WDR5; 38.4 °C — “SYPRO Orange fluorescence”: 14400 a.u.
DCAF1; 56.01 °C — “SYPRO Orange fluorescence”: 21800 a.u.
It gave 38600 a.u. for “SYPRO Orange fluorescence” (WDR5; 94.41 °C).
WDR5; 71.61 °C — “SYPRO Orange fluorescence”: 7360 a.u.
WDR5; 88.61 °C — “SYPRO Orange fluorescence”: 43600 a.u.

Set 4
Compound: CC[C@@]1(c2cccc(C(F)(F)F)c2)C2=C(Nc3n[nH]cc31)[C@H](F)C(C)(C)CC2=O (single isomer, unassigned)
Concentration: 1 µM
The remaining binding was 100% (MAPK4 (Homo sapiens, UniProt P31152); kinase binding, KINOMEscan; relative to: DMSO control).
ACVR1 (Homo sapiens, UniProt Q04771); kinase binding, KINOMEscan; relative to: DMSO control — remaining binding: 95%.
MAP2K1 (Homo sapiens, UniProt Q02750); kinase binding, KINOMEscan; relative to: DMSO control — remaining binding: 88%.
The remaining binding was 100% (PRKCH (Homo sapiens, UniProt P24723); binding, competition with immobilised ligand).
It gave 100% for remaining binding (VRK2 (Homo sapiens, UniProt Q86Y07); kinase binding, KINOMEscan; relative to: DMSO control).
The remaining binding was 94% (CAMK2G (Homo sapiens, UniProt Q13555); binding, competition with immobilised ligand).
For TRPM6 (Homo sapiens, UniProt Q9BX84); binding, competition with immobilised ligand: remaining binding read 100%.
MARK4 (Homo sapiens, UniProt Q96L34); kinase binding, KINOMEscan; relative to: DMSO control — remaining binding: 100%.
The remaining binding was 100% (PAK1 (Homo sapiens, UniProt Q13153); binding, competition with immobilised ligand).
The remaining binding was 85% (MST1R (Homo sapiens, UniProt Q04912); kinase binding, KINOMEscan; relative to: DMSO control).
GRK1 (Homo sapiens, UniProt Q15835); kinase binding, KINOMEscan; relative to: DMSO control — remaining binding: 56%.
The remaining binding was 100% (MAP3K20 (Homo sapiens, UniProt Q9NYL2); binding, competition with immobilised ligand).
It gave 100% for remaining binding (IKBKB (Homo sapiens, UniProt O14920); binding, competition with immobilised ligand).

Set 5
Compound: CCN(CC)CC(=O)N1CCN(c2nc(NCc3nc4cc(Cl)c(Cl)cc4[nH]3)c3ncn(CC)c3n2)CC1
Observed: cell viability
Technique: CellCounting-Lite
Temperature: 37 °C
Direction: higher = more viable cells
It gave 5410 a.u. and 6060 a.u. and 6520 a.u. for luminescence signal (MDA-MB-231; 31.25 nM).
For MDA-MB-468; 1.953 nM: luminescence signal read 16600 a.u. and 17700 a.u.
For MDA-MB-468; 7.812 nM: luminescence signal read 9870 a.u. and 8930 a.u. and 9300 a.u.
MDA-MB-468; 0.03052 nM — luminescence signal: 108000 a.u. and 111000 a.u. and 124000 a.u.
The luminescence signal was 236000 a.u. and 206000 a.u. and 189000 a.u. (MDA-MB-231; 0.4883 nM).
For MDA-MB-468; 125 nM: luminescence signal read 11500 a.u. and 11200 a.u.
For MDA-MB-231; 0.1221 nM: luminescence signal read 406000 a.u. and 376000 a.u. and 353000 a.u.
For MDA-MB-468; 500 nM: luminescence signal read 13500 a.u. and 14000 a.u. and 12700 a.u.
It gave 183000 a.u. and 205000 a.u. and 176000 a.u. for luminescence signal (MDA-MB-468; 0.007629 nM).

Mixed results
`Cc1ccc(O)c(C)c1-c1cnc2[nH]c(-c3cnc(N4CCC(CN5CCC(c6ccc(NC7CCC(=O)NC7=O)cc6F)CC5)CC4)nc3)cc2c1C#N` (stereo not drawn) gave a Cmax of 169 ng/mL (female CD-1 mouse, plasma; oral, 10 mg/kg).
`CN1CCC[C@H]1COc1nc2c(c(N3CCN(C(=O)C4CC4)[C@@H](CC#N)C3)n1)CCN(c1cccc3cccc(Cl)c13)C2` has an IC50 of 1500 nM (GTPase KRas (KRAS, Homo sapiens, UniProt P01116); target engagement in cells, BRET).
With `Cc1ccc(O)c(C)c1-c1cnc2[nH]c(-c3cnc(N4CCC5(CC4)CC(CN4CCN(c6ccc(NC7CCC(=O)NC7=O)cc6F)CC4)C5)nc3)cc2c1C#N` (stereo not drawn) the half-life was 3.6 h (female CD-1 mouse, plasma; oral, 20 mg/kg).
For `CN1CCC[C@H]1COc1nc2c(c(N3CCN(C(=O)C(F)(F)F)[C@@H](CC#N)C3)n1)CCN(c1cccc3cccc(Cl)c13)C2`, the IC50 was 7000 nM (GTPase KRas (KRAS, Homo sapiens, UniProt P01116, Q61H); target engagement in cells, BRET).
Under “fluorescence quantum yield”, `CCN1/C(=C/C=C2\CCCC(/C=C/C3=[N+](CC)c4ccccc4C3(C)C)=C2NCCCCCCCCN2CCC(Nc3nc4ccccc4n3Cc3ccc(F)cc3)CC2)C(C)(C)c2ccccc21` is recorded as 1.5 (PBS; 10 µM; relative to: Cy5).
With `C#Cc1cccc2cc(O)cc(-c3ncc4c(N5CC6CCC(C5)N6)nc(OCC56CCCN5CCC6)nc4c3F)c12` the normalized BRET was 92.5% and 108% and 112% and 84.2% (GTPase HRas (HRAS, Homo sapiens, UniProt P01112); binding, competitor, NanoBRET; HEK293; 41.1 nM).
With `Cc1ccc(O)c(C)c1-c1cnc2[nH]c(-c3cnc(N)nc3)cc2c1C#N` the IC50 was 2 nM (PKMYT1 (Homo sapiens, UniProt Q99640); enzyme activity, inhibitor).
With `C=CC(=O)N1CCN(c2nc(OC[C@@H]3CCCN3C)nc3c2CCN(c2cccc4cccc(C)c24)C3)C[C@@H]1CC#N` the normalized BRET was 85% and 95.3% and 87.7% (GTPase KRas (KRAS, Homo sapiens, UniProt P01116, G13D); binding, competitor, NanoBRET; HEK293; 3.05 nM).
For `Cc1ccc(O)c(C)c1-c1cnc2[nH]c(-c3cnc(N4CCC(CN5CCN(c6ccc(NC7CCC(=O)NC7=O)cc6F)CC5)CC4)nc3)cc2c1C#N` (stereo not drawn), the Cmax was 405 ng/mL (female CD-1 mouse, plasma; oral, 10 mg/kg).

Excerpt of the above (set 3):
WDR5; 92.21 °C — “SYPRO Orange fluorescence”: 41200 a.u.
For DCAF1; 89.61 °C: “SYPRO Orange fluorescence” read 35500 a.u.
WDR5; 38.4 °C — “SYPRO Orange fluorescence”: 14400 a.u.
